{"data": "Assay results collected from several papers", "BCL6": "B-cell lymphoma 6 protein (BCL6, Homo sapiens, UniProt P41182)", "NR1H3": "Oxysterols receptor LXR-alpha (NR1H3, Homo sapiens, UniProt Q13133)", "qscR DNA-bound dimer": "qscR, DNA-bound dimer (Pseudomonas aeruginosa, UniProt G3XD77)", "CDPK1": "Calmodulin-domain protein kinase 1 (CDPK1, Toxoplasma gondii, UniProt Q9BJF5)", "KCNH2": "Voltage-gated inwardly rectifying potassium channel KCNH2 (KCNH2, Homo sapiens, UniProt Q12809)", "DNA topoisomerase 4 subunit A with ParE subunit": "DNA topoisomerase 4 subunit A, with ParE subunit (Escherichia coli K-12, UniProt P0AFI2)", "note": "Each line is one published result; not all experiments were run side by side. Several values in a cell are separate wells, animals, samples, runs or records. ± marks the error that the study gave.", "sequence of UniProt P0AFI2 (whole entry, looked up)": "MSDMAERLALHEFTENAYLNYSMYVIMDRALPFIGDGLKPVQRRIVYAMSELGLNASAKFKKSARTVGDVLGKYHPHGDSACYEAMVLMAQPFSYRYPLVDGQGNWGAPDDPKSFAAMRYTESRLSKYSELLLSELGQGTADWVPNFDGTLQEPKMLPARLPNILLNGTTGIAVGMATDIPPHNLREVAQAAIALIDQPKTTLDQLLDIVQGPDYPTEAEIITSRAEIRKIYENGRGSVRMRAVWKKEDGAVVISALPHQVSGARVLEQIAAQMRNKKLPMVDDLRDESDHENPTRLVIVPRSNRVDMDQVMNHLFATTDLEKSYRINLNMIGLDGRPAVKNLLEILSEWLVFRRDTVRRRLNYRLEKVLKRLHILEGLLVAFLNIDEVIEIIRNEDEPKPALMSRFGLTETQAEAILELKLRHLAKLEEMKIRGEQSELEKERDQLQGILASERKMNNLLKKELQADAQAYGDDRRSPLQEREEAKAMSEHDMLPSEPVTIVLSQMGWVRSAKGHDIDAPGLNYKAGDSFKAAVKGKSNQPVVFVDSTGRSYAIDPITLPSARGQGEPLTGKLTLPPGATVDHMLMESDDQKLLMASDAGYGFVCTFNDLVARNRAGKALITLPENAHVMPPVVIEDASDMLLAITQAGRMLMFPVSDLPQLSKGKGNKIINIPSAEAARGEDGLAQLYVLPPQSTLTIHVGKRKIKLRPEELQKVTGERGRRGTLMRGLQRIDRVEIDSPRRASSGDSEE", "sequence of UniProt Q13133 (whole entry, looked up)": "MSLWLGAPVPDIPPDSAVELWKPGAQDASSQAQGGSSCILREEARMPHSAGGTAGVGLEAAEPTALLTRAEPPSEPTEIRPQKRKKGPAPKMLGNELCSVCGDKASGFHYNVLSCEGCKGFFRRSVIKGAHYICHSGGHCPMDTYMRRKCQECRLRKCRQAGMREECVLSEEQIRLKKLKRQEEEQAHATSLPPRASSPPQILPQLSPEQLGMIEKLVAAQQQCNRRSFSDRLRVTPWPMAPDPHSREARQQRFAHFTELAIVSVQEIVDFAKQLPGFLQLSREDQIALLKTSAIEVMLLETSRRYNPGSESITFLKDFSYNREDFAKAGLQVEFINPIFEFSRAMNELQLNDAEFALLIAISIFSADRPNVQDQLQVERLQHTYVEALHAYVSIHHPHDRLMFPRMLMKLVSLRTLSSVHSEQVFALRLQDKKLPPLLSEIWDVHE", "sequence of UniProt Q12809 (whole entry, looked up)": "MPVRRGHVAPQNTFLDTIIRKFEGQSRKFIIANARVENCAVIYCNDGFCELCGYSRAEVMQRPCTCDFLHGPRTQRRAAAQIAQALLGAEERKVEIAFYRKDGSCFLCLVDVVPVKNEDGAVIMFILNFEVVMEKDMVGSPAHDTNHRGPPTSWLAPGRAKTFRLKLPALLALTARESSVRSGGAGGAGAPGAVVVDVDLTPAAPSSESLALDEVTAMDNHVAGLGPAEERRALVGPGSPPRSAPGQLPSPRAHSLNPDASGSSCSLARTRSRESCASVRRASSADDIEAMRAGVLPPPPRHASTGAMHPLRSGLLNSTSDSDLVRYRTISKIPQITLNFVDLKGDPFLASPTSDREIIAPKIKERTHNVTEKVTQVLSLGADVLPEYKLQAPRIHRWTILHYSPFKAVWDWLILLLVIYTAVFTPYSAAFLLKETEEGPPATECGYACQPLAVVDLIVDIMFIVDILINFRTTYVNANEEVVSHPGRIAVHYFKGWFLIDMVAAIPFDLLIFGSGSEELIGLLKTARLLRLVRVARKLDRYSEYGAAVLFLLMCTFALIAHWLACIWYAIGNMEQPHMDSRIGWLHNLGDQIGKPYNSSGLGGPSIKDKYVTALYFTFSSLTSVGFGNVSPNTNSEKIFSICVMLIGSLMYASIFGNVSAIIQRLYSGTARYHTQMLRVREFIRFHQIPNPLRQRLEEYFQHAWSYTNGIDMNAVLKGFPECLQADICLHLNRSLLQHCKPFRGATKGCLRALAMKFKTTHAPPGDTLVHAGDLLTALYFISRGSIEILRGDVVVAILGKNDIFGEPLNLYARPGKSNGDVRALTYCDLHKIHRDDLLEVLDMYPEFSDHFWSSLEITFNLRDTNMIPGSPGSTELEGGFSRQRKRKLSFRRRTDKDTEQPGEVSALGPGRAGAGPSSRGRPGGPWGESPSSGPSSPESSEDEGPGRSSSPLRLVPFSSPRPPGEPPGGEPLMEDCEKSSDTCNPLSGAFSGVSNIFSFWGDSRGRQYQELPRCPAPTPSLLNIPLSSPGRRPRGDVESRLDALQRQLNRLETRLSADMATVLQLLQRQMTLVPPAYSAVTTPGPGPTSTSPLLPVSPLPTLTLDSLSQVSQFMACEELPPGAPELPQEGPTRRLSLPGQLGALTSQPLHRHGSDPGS", "sequence of UniProt O07884 (whole entry, looked up)": "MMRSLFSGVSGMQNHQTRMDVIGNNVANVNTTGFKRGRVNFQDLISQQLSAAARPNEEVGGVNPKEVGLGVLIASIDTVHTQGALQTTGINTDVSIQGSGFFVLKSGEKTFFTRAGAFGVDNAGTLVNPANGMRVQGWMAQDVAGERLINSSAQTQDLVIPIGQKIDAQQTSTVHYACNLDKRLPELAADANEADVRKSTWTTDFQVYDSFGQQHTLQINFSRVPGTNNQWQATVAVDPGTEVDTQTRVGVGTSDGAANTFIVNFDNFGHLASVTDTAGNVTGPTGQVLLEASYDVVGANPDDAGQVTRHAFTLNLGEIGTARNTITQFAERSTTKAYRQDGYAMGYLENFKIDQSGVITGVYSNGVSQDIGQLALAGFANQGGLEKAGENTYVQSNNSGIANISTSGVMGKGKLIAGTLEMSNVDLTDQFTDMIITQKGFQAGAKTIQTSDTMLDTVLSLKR", "sequence of UniProt P17706 (whole entry, looked up)": "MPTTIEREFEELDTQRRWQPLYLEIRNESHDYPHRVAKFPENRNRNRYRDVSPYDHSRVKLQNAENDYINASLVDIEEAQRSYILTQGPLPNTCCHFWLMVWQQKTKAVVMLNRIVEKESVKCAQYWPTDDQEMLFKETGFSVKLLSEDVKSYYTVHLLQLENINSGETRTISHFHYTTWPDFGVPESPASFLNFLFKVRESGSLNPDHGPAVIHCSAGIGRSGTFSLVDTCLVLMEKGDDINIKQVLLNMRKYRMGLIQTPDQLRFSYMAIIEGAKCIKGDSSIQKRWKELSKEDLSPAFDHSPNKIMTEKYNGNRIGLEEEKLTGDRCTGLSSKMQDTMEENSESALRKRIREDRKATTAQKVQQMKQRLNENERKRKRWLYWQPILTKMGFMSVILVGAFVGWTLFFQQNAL", "sequence of UniProt P0A4Q0 (whole entry, looked up)": "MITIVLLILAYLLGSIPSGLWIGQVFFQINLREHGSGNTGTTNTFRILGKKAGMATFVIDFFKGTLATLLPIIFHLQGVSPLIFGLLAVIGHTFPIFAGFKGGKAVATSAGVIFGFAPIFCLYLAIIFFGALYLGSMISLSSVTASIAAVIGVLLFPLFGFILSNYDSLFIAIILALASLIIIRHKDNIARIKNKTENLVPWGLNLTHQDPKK"}
{"Compound": "Cn1c(=O)n(CCC(C)(C)O)c2cc(Nc3nc(N4CCC(C(F)(F)F)CC4)ncc3Cl)ccc21", "target": "BCL6", "IC50": "1190 nM and 770 nM"}
{"Compound": "CC(=O)c1cc(O)c2ccccc2c1O", "target": "Genome polyprotein, methyltransferase domain (pol, Dengue virus type 3, UniProt Q6YMS4)", "assay": "HTRF", "system": "Dengue virus 3", "IC50": "3900 nM"}
{"Compound": "CCCCCCCCCCCCCCCC(=O)C(F)(F)P(=O)(O)O", "target": "Glycerol-3-phosphate acyltransferase (plsY, Streptococcus pneumoniae, UniProt P0A4Q0)", "assay": "inhibitor", "IC50": "39000 nM"}
{"Compound": "Cn1c(=O)n(CCC(C)(C)O)c2cc(Nc3ncnc(Cl)c3Cl)ccc21", "target": "BCL6", "IC50": "1950 nM"}
{"Compound": "CO[C@H]1C[C@H](O[C@H]2[C@H](C)O[C@@H](O[C@@H]3/C(C)=C/C[C@@H]4C[C@@H](C[C@]5(C=C[C@H](C)[C@@H](C6CCCCC6)O5)O4)OC(=O)[C@@H]4C=C(C)[C@@H](O)[C@H]5OC/C(=C\\C=C\\[C@@H]3C)[C@]54O)C[C@@H]2OC)O[C@@H](C)[C@@H]1O", "target": "NR1H3", "assay": "coactivator recruitment", "IC50": "2470 ± 2130 nM"}
{"Compound": "O=c1[nH]c2ccccc2n1C1CCN(Cc2ccc(-c3nc4cc5[nH]cnc5cc4nc3-c3ccccc3)cc2)CC1", "target": "Nuclear receptor ROR-gamma, RORγt ligand-binding domain (RORC, Homo sapiens, UniProt P51449)", "assay": "co-activator peptide binding, inhibitor, HTRF", "setting": "2 h, RORγt LBD 100 nM, added: SRC1-2 peptide 100 nM", "IC50": "890 ± 330 nM"}
{"Compound": "O=C(O)CC(F)(F)C(=O)N1N=C(c2c(-c3ccc(Cl)cc3)c3ccccc3[nH]c2=O)C[C@H]1c1ccc(Cl)cc1", "target": "Grin1/Grin2b/Glutamate receptor ionotropic, NMDA 2D (Rattus norvegicus, UniProt P35439+Q00960+Q62645)", "assay": "ion current, inhibitor, two-electrode voltage clamp", "system": "Xenopus oocytes", "setting": "added: glycine and aspartate", "IC50": "91 nM"}
{"Compound": "CNC(C)Cc1ccc2nonc2c1 (stereo not shown)", "target": "SLC29A4 (Homo sapiens, UniProt Q7RTT9)", "IC50": "20200 ± 4800 nM"}
{"Compound": "Nc1c(S(=O)(=O)O)cc(Nc2ccc(Nc3nc(Cl)nc(Nc4cccc(S(=O)(=O)O)c4)n3)c(S(=O)(=O)O)c2)c2c1C(=O)c1ccccc1C2=O", "target": "P2X purinoceptor 7 (P2RX7, Homo sapiens, UniProt Q99572)", "assay": "calcium mobilization, antagonist", "system": "MCF7 transfected with P2RX7", "setting": "added: 100 µM BzATP", "IC50": "4440 ± 210 nM"}
{"Compound": "O=C(CCCOc1ccc(Cl)cc1)NC1CCOC1=O (stereo not shown)", "target": "qscR DNA-bound dimer", "assay": "ligand binding, FRET displacement", "setting": "protein 5 nM with DNA, added: fluorescent ligand 2 µM", "IC50": "160 nM"}
{"Compound": "COCCn1c2nc(=O)n(-c3ccccc3)c(=O)c-2nc2ccccc21", "target": "Genome polyprotein, NS5 methyltransferase domain (GP1, West Nile virus, UniProt Q9Q6P4)", "assay": "IC50-disp", "IC50": "13000 nM"}
{"Compound": "CO[C@H]1C[C@H](O[C@@H]2/C(C)=C/C[C@@H]3C[C@@H](C[C@]4(CC[C@H](C)[C@@H](C5CCCCC5)O4)O3)OC(=O)[C@@H]3C=C(C)/C(=N/O)[C@H]4OC/C(=C\\C=C\\[C@@H]2C)[C@]43O)O[C@@H](C)[C@@H]1O", "target": "NR1H3", "assay": "receptor activity, inhibitor", "system": "cells", "IC50": "10800 ± 3750 nM"}
{"Compound": "Cn1c(=O)n(CCC(C)(C)O)c2cc(Nc3nc(N4CCCC(C#N)C4)ncc3Cl)ccc21 (stereo not shown)", "target": "BCL6", "IC50": "340 nM and 360 nM and 500 nM"}
{"Compound": "CCCCCCCCCCCC(=O)N[C@H]1CCOC1=O", "target": "qscR DNA-bound dimer", "assay": "ligand binding, FRET displacement", "setting": "protein 5 nM with DNA, added: fluorescent ligand 2 µM", "IC50": "31.1 nM"}
{"Compound": "Nc1ncnc2c1c(Oc1cncc(C(F)(F)F)c1)nn2C1CC1", "target": "CDPK1", "assay": "enzyme activity, inhibitor", "IC50": "> 20000 nM"}
{"Compound": "C[C@]12C[C@@H](O)[C@H]3[C@@H](CC[C@]4(O)C[C@@H](O)C[C@@H](O)[C@]34CO)[C@@]1(O)CC[C@@H]2c1cn(Cc2ccccc2)nn1", "target": "KCNH2", "assay": "inhibitor", "IC50": "> 62500 nM"}
{"Compound": "CN1C(=O)Cc2ccc(F)c(CNCCCC3CN(c4ccc5c(n4)NC(=O)CO5)C(=O)O3)c21 (stereo not shown)", "target": "DNA topoisomerase 4 subunit A with ParE subunit", "assay": "decatenation activity, inhibitor", "IC50": "460 nM"}
{"Compound": "OC(c1ccc(F)cc1)C(F)(F)CCN1CCC(O)(c2ccc(Cl)cc2)CC1 (racemic)", "target": "KCNH2", "assay": "potassium current, inhibitor, automated patch clamp", "system": "CHO hERG-DUO cells", "IC50": "690 nM"}
{"Compound": "COc1cc(Nc2ncc(F)c(Nc3ccc4c(n3)NC(=O)C(C)(C)O4)n2)cc(OC)c1OC", "target": "PTPN2 (Homo sapiens, UniProt P17706)", "setting": "TCPTP", "IC50": "> 10000 nM"}
{"Compound": "Cc1ccnn1-c1ncc(Cl)c(Nc2ccc3c(c2)n(CCC(C)(C)O)c(=O)n3C)n1", "target": "BCL6", "IC50": "560 nM and 220 nM and 330 nM"}
{"Compound": "COc1ncccc1-c1cnn2ccc(N3CCN(C(=O)OC(C)C)CC3)nc12", "target": "Gamma-aminobutyric acid receptor subunit alpha-5 (Homo sapiens, UniProt P31644)", "assay": "liability screen", "IC50": "> 30000 nM"}
{"Compound": "Cn1c(=O)n(CCC(C)(C)O)c2cc(Nc3nc(N4CCCC(C(F)(F)F)C4)ncc3Cl)ccc21 (stereo not shown)", "target": "BCL6", "IC50": "260 nM and 630 nM"}
{"Compound": "C=CC(=O)N[C@H]1C=C(C)c2c(-c3cnc4ccccc4c3)c3c(N)ncnc3n2C1", "target": "EGFR (Homo sapiens, UniProt P00533)", "assay": "EGFR phosphorylation, HTRF", "system": "HaCaT^WT cells", "setting": "2 h, added: EGF", "IC50": "597 nM"}
{"Compound": "Nc1ncnc2c1c(Oc1cc(C(=O)O)ccn1)nn2C1CC1", "target": "CDPK1", "assay": "enzyme activity, inhibitor", "IC50": "> 20000 nM"}
{"Compound": "Oc1cc(Cl)ccc1Oc1ccc(Cl)cc1Cl", "target": "Flagellar hook protein FlgE (flgE, Treponema pallidum, UniProt O07884)", "IC50": "64700 nM"}
{"Compound": "C[C@H]1CN(c2n[nH]c3nc(N[C@H]4CC[C@H](NS(=O)(=O)CCC(F)(F)F)CC4)ncc23)CCO1", "target": "KSR1 (Homo sapiens, UniProt Q8IVT5)", "assay": "biochemical", "IC50": "≥ 20000 nM"}
{"Compound": "CC[C@@H](O)Cn1c(=O)n(C)c2ccc(Nc3ccnc(Cl)c3C#N)cc21", "target": "BCL6", "IC50": "4740 nM and 3390 nM and 5860 nM"}
{"Compound": "O=[N+]([O-])c1cc(-c2ccnc(N3CCOCC3)n2)ccc1NCCCCCCN1C[C@H](O)[C@@H](O)[C@H](O)[C@H]1CO", "target": "Mogs (Mus musculus, UniProt Q80UM7)", "assay": "enzyme activity, inhibitor", "setting": "added: trisaccharide substrate", "IC50": "< 1 nM"}
{"Compound": "C[C@@H]1C[C@H](C)CN(c2cc(Nc3ccc4c(c3)n(CCC(C)(C)O)c(=O)n4C)c(Cl)cn2)C1", "target": "BCL6", "IC50": "3870 nM"}
{"Compound": "Cn1c(=O)ccc2ccc(F)c(CCNC[C@H]3CN(c4ncc5c(n4)NC(=O)CO5)C(=O)O3)c21", "target": "DNA topoisomerase 4 subunit A with ParE subunit", "assay": "decatenation activity, inhibitor", "IC50": "112 nM"}
{"Compound": "O=C1C=CC(=O)c2c(O)cccc21", "target": "Malonyl-CoA-ACP transacylase (Helicobacter pylori, UniProt Q56S05)", "assay": "inhibitor, dehydrogenase-coupled", "setting": "added: alpha-ketoglutarate", "IC50": "20000 ± 1000 nM"}
{"Compound": "N#Cc1cc2nc(O)c(O)nc2cc1[N+](=O)[O-]", "target": "Glutamate receptor 3 (Rattus norvegicus, UniProt P19492, D677A)", "IC50": "1200 ± 300 nM"}
{"Compound": "Cc1cc(C)n(-c2ncc(Cl)c(Nc3ccc4c(c3)n(CCC(C)(C)O)c(=O)n4C)n2)n1", "target": "BCL6", "IC50": "290 nM and 220 nM"}
{"Compound": "CCOC(=O)CC(SP(=O)(OC)OC)C(=O)OCC (stereo not shown)", "target": "carboxylesterase mouse", "assay": "inhibitor", "system": "PON1+/+ mouse liver homogenate", "setting": "30 min, 23 °C", "IC50": "312 nM and 336 nM and 278 nM"}
{"Compound": "CCCCCCCCCC(=O)NC1CCCC1", "target": "qscR, ligand-binding domain (Pseudomonas aeruginosa, UniProt G3XD77)", "assay": "ligand binding, FRET displacement", "setting": "ligand-binding domain 5 nM, added: fluorescent ligand 2 µM", "IC50": "8450 nM"}
{"Compound": "CCOP(=O)(OCC)Oc1nc(Cl)c(Cl)cc1Cl", "target": "carboxylesterase mouse", "assay": "inhibitor", "system": "PON1+/+ mouse liver homogenate", "setting": "30 min, 23 °C", "IC50": "4.4 nM and 3.5 nM and 5 nM"}
{"Compound": "CN(C)C(=O)C(CCN1CCC(O)(c2ccc(Cl)cc2)CC1)(c1ccccc1)c1ccccc1", "target": "Calcium-activated potassium channel subunit alpha-1, with LRRC26 γ1 subunit (KCNMA1, Homo sapiens, UniProt Q12791)", "assay": "BK channel conductance, inhibitor, inside-out patch clamp", "setting": "BKα/γ1, Vm 60 mV, nominally Ca2+-free", "IC50": "2500 ± 530 nM"}
{"note": "A few entries again:"}
{"Compound": "O=[N+]([O-])c1cc(-c2ccnc(N3CCOCC3)n2)ccc1NCCCCCCN1C[C@H](O)[C@@H](O)[C@H](O)[C@H]1CO", "target": "Mogs (Mus musculus, UniProt Q80UM7)", "assay": "enzyme activity, inhibitor", "setting": "added: trisaccharide substrate", "IC50": "< 1 nM"}
{"Compound": "C[C@@H]1C[C@H](C)CN(c2cc(Nc3ccc4c(c3)n(CCC(C)(C)O)c(=O)n4C)c(Cl)cn2)C1", "target": "BCL6", "IC50": "3870 nM"}
{"Compound": "Cn1c(=O)ccc2ccc(F)c(CCNC[C@H]3CN(c4ncc5c(n4)NC(=O)CO5)C(=O)O3)c21", "target": "DNA topoisomerase 4 subunit A with ParE subunit", "assay": "decatenation activity, inhibitor", "IC50": "112 nM"}
